Published values from different studies.
Parts stem from different laboratories: compare values within a part only.

Block 1 — technique: RNA Bind-n-Seq; form: RNA; medium: in vitro; concentration: 200 nM; notes: whole 134-nt RNA, ends assumed; with: 150 mM LiCl; reference: input library; direction: higher = stronger binding; library: 7-deaza-guanosine replaces G
Target: Fragile X messenger ribonucleoprotein 1, C-terminal low-complexity region (Fmr1, Mus musculus, UniProt P35922)
All sequences stand within: GGGAGUUCUACAGUCCGACGAUC … UGGAAUUCUCGGGUGUCAAGG
Oligonucleotide | log2 enrichment
UCAAGUCCUGUGCUACACAUCGUAUGUACCGAAUCGGCCGGGGCCGGGGCCGGGGAAAGUAUUAUGUUACGCCGUUCGGAUCUGCACUUC | -0.702
ACCAUGCAGGUGGGCAUCUUUGGGAAGUGGGGCAAGGGGGGGAUAGGGAGGGGGGUAACACUUUGGGAACAGAAAGUCCCAGGUCGUUUC | 1.45
AGUCCUGUGCUACACAUCGUAUGUACCGAAUCGGAAAAAGGGGAAAAAGGAAAAAGGGAAAGUAUUAUGUUACGCCGUUCGGAUCUGCAC | -0.639
CUCAAGUCCUGUGCUACACAUCGUAUGUACCGAAUCGGUUUGGUUUGGAAAGGAAAGUAUUAUGUUACGCCGUUCGGAUCUGCACUUCCA | 0.0823
UGGCCCUGGUGGGAUGCGGGGAGGAAGAGGUGGCCUCAUGGAUCGUGGUGGUCCCGGUGGAAUGUUCAGAGGUGGCCGUGGUGGAGACAG | 0.84
AAGUCCUGUGCUACACAUCGUAUGUACCGAAUCGGGGAAAGGGGUGGGGAAAGGGGAAAGUAUUAUGUUACGCCGUUCGGAUCUGCACUU | -0.29
CACAGACCACACGCACCCACACAGACACAGAGGGAAGGGGUUGGGAUGGGGACAGGGUGCACAGCAGGGCGGGGUAGGACCCCAGCCCCU | 1.09
UGGGAGGUGGAUUUUGUUUAUUUUUUUAGCUCAUUUCCAGGGGUGGAAAUUUUUUUUUAAUAUGUGUCAUGAAUAAAGUUGUUUUUGAAA | 0.391

Block 2 — technique: RNA Bind-n-Seq; form: RNA; medium: in vitro; concentration: not given; reference: input RNA pool; direction: higher = stronger binding
Target: RING finger protein unkempt homolog, zinc fingers 1-6, GST-SBP tag (UNK, Homo sapiens, UniProt Q9C0B0, residues 30-357)
Notes: RNA with constant flanks, human-mouse chimeric sites, ends assumed
All sequences stand within: GGGAGUUCUACAGUCCGACGAUC … CAACAGAGGAUUGAGCAUCA
Construct (chain): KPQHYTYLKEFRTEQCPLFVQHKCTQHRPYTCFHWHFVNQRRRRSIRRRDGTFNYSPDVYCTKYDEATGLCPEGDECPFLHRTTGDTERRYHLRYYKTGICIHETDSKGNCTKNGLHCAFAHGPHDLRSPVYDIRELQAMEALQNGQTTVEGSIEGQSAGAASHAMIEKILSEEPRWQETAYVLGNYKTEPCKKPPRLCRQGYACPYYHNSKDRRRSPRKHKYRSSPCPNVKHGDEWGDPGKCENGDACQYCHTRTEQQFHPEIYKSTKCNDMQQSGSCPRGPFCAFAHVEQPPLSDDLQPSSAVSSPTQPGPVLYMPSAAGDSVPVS
Oligonucleotide | bound/input enrichment [ratio]
UGACAAGGGCACUGCAGGGCCAUGCCUUUCCUUGACAUACAGAAAAAGCUGGGCAUCAGCCUGGACCGGCACUUUAUGUUCCUAAGCGGUGAACAGCCCUAUAAGAACGCCGCUCGGUGC | 0.0947
CCACCAGGAUCCCAGAAACAUGACCCUUGCUGCCUACAAAGAGAAGAUGAAGGAGCUCCCGCUGGUGUCCUUGUUCUGCUCCUGCUUCCUGGCCGAUCCCCUGAAUAAAUCAUCCUACAA | 0.309
UUAAUCCCCUUCGUUGCUCCCCCACUUCUCAUGGUAAUAACAAAGUCUUAUAUCCCCAUAUUAGCUUUCACUCAGAUGGCUUAUGGAGCCGGUUUCCUAGCUUUCUUGGGAGGGAUCAGA | 0.461
ACCUCCCCCUCCCGCCUCACCCCACCCAAGAAAGAAAGAAAGUUUUUGGCGUUUCUUUUCCUUCCCCAUACAAAGUGGUUUUUACCACCCCCGCAAGGGUCUAUCGAAGGGCUUGACGGA | 0.491
AGAGAAAUGAGAAAGAAUCUUACACAAGAUGAGAUGCAAAGAAUGUCUACUAGAGUCCUUUUGGCGACUCUUUCCAUUCCUAUUACUCCUGAGCGAACGGAUAUUGCUCGACUUUUGGAU | 0.0963
UGUGAACUGUCUCUUGAGAUCUAAAAACAAGAUGACUUUUCCUGGCACAUAUUCCAAAGCAUAGACUUUGUUGCCUGCUGCUUAUUGUCUAAUUUACAGGGAUAUUUAAUUUUGUCAGGU | 0.234
GUAGCUGGGACUACAGAAGAAUGCUGAAUUUCAGUCACUUGCUGAUGACUUCUGAUGUCCCAGCAAAUGUUGGCAUUGUUGACUGCUGAGAAGAUACUUCUGAGGACAUACAGCAGUGGU | 0.101

Block 3 — technique: protein-binding microarray; form: double-stranded DNA, one strand shown; medium: in vitro; concentration: 250 nM; notes: 60-bp whole probe; with: salmon DNA 0.4 mg/ml; reference: random background probes; direction: higher = stronger binding; all sequences stand within: GCCTAGCAC … GTCTTGATTCGCTTGACGCTGCTG
Target: Interferon regulatory factor 7, full length, phosphomimetic (IRF7, Homo sapiens, UniProt Q92985, residues 1-503, S101K/S471D/S472D/S475D/S476D/S477D/S483D/S484D/S487D)
Target sequence (chain): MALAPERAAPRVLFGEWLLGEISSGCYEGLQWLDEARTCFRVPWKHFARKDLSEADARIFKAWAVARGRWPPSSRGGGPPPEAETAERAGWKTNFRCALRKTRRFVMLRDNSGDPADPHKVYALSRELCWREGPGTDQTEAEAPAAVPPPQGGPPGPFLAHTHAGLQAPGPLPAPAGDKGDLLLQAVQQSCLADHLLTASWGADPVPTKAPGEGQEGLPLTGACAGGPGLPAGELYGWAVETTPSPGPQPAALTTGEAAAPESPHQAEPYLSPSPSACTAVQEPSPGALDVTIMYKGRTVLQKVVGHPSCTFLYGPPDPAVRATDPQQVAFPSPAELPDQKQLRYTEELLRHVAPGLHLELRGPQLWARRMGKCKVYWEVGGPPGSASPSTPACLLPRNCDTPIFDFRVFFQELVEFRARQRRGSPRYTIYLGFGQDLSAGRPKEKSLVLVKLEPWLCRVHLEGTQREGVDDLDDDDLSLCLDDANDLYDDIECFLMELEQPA
Oligonucleotide | log fluorescence [z-score]
GTAGATATCAGACTGGATTAGTGCTAG | -0.551
TTAGGTTTCGACACTCGGTTAGTGCTA | 4.81
GACGGACTGGGTCTCTGGACGTGCTAG | -0.9
TTAGGTATCGTCTTTCGGTTAGTGCTA | 1.85
CTAGTAGCCTAAGGCTACCGGTGCTAG | 0.176
TCACCTTTTATATTGTAACTGTGCTAG | 0.898
TTAGCTATCCTTTTCCTTTAGTGCTAG | 0.515
GTGTTTCTCAGTTTATTTATGTGCTAG | 2.79
TTAGATCTCAGACTGCATTAGTGCTAG | -0.0104
TCATATCTAAGATTCTAACTGTGCTAG | 1.03
TGGGATTTTCCCATGAGTCTGTGCTAG | 0.285
TCACCTTTTAAGTTCTCACTGTGCTAG | 0.876
TCAGTTCTGCTTCTTAGACTGTGCTAG | 1.11

Block 4 — technique: protein-binding microarray; form: double-stranded DNA, one strand shown; medium: in vitro; concentration: 0.8 µM; notes: whole 60-bp probe, no competitor; direction: higher = stronger binding; all sequences stand within: … GTCTTGATTCGCTTGACGCTGCTG
Target: Centromere-binding protein 1, full length, N-terminal tag (CBF1, Saccharomyces cerevisiae, UniProt P17106, residues 1-351)
Sequence of UniProt P17106 (whole entry, looked up): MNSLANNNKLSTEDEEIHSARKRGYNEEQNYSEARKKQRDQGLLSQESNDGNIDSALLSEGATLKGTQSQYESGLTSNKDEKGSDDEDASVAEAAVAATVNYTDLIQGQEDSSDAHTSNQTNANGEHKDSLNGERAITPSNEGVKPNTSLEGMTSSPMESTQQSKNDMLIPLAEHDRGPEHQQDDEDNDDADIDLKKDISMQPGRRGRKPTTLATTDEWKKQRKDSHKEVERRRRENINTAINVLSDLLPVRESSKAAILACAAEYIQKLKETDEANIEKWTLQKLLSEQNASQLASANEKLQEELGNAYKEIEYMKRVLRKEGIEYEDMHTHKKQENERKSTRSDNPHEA
Oligonucleotide | fluorescence intensity
CTAAGTCTTTTGATTATCATGACTAAAGTAAACTTC | 519 a.u.
CTAGTACTGATTACGTCCGTGATTCGAAAAGCATTC | 716 a.u.
GAAGTCGTTTAACGTCATGTAAGATTCCTAAGTTAG | 518 a.u.
TGTACGAAGCTATAGGCCGTGACTATAGTAGTTAGG | 590 a.u.
CTAATTCTTTTACATCAGGCATAAAGTTTCCGATTC | 532 a.u.
GAAGACTATTGGCAGCATCAGAGAGAATTAAACTAG | 535 a.u.
GAAAGAATCGAAAATCACGGAAGTGGTACCAAATAG | 514 a.u.
CCTAACTACTATAACCACATGCGATAGCTTCGTACA | 594 a.u.
GAAGTGTTGCGATGTCTCCTGACCTCACTATTTTAG | 826 a.u.
GAACACGATATATTTAATGTGACACCCATTTTATAG | 606 a.u.
GAATAACATATTAGTGTCACGACCGCTAGCCAATAG | 710 a.u.
CTACACTGACGGGGTCACGTGTGTTTATTCTGTTTC | 13800 a.u.
GAATGTCTTTTTCGCCACATGTAATATCTGTAGTAG | 680 a.u.

For quick reference, copied from above (block 4):
Oligonucleotide | fluorescence intensity
TGTACGAAGCTATAGGCCGTGACTATAGTAGTTAGG | 590 a.u.
GAAGTCGTTTAACGTCATGTAAGATTCCTAAGTTAG | 518 a.u.
CTACACTGACGGGGTCACGTGTGTTTATTCTGTTTC | 13800 a.u.
